Published values gathered from unrelated publications.
Every numbered part comes from another study and shows a few of its results, in no order. Substitutions count along the parent as printed.
UniProt P93830, sequence (whole entry, looked up): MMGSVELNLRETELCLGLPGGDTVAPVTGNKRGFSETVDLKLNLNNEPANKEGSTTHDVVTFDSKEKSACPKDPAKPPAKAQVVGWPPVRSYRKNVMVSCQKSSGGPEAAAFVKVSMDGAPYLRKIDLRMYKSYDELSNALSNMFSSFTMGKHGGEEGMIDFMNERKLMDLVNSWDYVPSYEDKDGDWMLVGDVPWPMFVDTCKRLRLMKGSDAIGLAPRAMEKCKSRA
UniProt Q8L7G0, sequence (whole entry, looked up): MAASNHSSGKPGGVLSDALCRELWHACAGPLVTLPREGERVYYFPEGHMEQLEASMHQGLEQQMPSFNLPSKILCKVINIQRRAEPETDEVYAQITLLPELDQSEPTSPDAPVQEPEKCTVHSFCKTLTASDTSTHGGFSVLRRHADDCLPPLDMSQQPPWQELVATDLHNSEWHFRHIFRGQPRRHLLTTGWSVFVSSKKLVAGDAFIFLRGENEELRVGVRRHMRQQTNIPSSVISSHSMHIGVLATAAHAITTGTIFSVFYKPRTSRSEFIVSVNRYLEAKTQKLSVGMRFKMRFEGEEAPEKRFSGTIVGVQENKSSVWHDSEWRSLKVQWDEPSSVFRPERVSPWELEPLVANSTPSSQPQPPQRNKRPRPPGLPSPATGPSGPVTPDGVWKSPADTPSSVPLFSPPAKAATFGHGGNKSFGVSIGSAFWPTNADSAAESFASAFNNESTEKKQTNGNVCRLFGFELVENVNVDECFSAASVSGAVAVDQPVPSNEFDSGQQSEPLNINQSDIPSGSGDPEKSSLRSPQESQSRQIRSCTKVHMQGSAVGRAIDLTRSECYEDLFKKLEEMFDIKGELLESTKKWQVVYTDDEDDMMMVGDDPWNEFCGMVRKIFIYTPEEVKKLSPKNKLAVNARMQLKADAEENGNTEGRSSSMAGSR
UniProt Q9ZTX8, sequence (whole entry, looked up): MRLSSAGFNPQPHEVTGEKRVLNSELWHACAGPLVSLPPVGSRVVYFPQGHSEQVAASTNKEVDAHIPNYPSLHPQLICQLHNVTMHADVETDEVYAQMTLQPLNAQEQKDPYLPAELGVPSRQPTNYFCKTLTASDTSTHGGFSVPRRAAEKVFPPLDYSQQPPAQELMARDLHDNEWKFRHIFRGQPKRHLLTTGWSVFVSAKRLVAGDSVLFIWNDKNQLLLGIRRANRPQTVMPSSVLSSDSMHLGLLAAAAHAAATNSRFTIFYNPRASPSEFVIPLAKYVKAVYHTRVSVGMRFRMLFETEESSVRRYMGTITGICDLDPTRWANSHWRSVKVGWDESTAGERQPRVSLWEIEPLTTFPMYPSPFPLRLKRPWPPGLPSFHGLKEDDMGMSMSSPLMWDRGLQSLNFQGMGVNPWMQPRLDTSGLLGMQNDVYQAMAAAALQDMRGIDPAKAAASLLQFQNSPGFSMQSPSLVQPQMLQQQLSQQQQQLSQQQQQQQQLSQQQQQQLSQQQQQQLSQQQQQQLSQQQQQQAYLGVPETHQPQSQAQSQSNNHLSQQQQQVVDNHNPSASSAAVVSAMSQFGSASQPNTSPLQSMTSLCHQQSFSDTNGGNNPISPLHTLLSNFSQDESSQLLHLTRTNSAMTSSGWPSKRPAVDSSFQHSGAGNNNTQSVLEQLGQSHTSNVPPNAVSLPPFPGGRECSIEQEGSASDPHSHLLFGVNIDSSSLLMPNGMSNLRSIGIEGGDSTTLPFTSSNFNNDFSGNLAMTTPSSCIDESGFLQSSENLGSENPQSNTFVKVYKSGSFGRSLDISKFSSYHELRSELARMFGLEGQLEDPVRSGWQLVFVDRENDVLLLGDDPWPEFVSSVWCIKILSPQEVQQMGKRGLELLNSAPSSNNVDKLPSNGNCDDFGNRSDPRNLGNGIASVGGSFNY
UniProt O24410, sequence (whole entry, looked up): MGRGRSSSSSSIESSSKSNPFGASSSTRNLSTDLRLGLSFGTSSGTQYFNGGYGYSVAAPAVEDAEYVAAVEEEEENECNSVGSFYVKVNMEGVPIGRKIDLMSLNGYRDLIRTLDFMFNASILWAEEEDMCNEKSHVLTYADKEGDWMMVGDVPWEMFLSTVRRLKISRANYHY
UniProt Q93YR9, sequence (whole entry, looked up): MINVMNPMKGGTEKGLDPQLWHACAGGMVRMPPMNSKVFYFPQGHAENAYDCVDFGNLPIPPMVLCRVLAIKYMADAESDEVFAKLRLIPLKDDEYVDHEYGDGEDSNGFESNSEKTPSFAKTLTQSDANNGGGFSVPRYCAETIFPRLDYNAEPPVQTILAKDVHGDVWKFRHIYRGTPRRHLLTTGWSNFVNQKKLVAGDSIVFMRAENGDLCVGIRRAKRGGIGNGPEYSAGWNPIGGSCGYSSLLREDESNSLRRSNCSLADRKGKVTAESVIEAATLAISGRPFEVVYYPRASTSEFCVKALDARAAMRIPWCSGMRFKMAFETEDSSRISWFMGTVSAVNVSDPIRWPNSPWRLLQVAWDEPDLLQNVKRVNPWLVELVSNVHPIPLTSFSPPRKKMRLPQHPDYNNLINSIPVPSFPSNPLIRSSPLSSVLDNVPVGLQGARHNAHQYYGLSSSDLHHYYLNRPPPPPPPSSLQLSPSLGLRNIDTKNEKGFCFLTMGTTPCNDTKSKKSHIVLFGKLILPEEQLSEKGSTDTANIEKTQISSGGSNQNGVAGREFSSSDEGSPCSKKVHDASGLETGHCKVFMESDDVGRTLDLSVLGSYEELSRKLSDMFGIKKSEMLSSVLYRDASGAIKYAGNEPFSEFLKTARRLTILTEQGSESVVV

Series 1
Target: Interferon regulatory factor 7, full length, phosphomimetic (IRF7, Homo sapiens, UniProt Q92985, residues 1-503, S101K/S471D/S472D/S475D/S476D/S477D/S483D/S484D/S487D)
UniProt Q92985, sequence (whole entry, unmodified, looked up): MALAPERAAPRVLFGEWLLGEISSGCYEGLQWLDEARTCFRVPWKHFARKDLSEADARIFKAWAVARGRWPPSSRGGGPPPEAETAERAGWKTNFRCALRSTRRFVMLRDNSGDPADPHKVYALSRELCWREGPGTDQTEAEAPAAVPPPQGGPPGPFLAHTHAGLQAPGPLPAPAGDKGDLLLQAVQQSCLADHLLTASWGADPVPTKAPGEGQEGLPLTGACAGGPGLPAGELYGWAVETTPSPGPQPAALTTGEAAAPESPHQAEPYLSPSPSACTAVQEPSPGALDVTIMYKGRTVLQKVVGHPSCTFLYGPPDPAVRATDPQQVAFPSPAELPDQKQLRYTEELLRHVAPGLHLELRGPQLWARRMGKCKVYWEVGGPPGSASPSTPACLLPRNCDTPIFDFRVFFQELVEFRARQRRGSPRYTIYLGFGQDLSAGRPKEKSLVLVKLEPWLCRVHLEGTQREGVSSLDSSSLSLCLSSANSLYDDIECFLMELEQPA
Method: protein-binding microarray
Molecule type: double-stranded DNA, one strand shown
Medium: in vitro
Concentration: 250 nM
Notes: 60-bp whole probe
With: salmon DNA 0.4 mg/ml
Reference: random background probes
Direction: higher = stronger binding
Constant ends, left off below: GCCTAGCAC … GTCTTGATTCGCTTGACGCTGCTG
Sequence | log fluorescence
TCATTTTTGTAATCGAAAACTGTGCTA | 1.49 z-score
GACGATTTCAGTGTCGAGACGTGCTAG | 0.0785 z-score
AGACATTCTTTCAGTTGGAAGTGCTAG | 0.409 z-score
GACGATTTCAGCCTGGAGACGTGCTAG | -0.0997 z-score
GACGCTTTCGGTATCGGGACGTGCTAG | 2.08 z-score
GACGGACTGCTAGTGCTGACGTGCTAG | -0.849 z-score
TTAGATATGGGGTTTCGATTAGTGCTA | 6.07 z-score
TTAGGTTTACTTTTCCTTTAGTGCTAG | 1.27 z-score
GTCGATTTCAGTTCCGAGACGTGCTAG | 1.51 z-score
TTAGATAGCAGTATCGATTAGTGCTAG | 0.319 z-score
GACGGTATCCTACTGCTGTCGTGCTAG | -0.199 z-score
GACGTTTCCCTTTTCCTGACGTGCTAG | 3.96 z-score
GACTGTATCGACTATCGGGACGTGCTA | -0.144 z-score
TCACCTCTGTAAGTCAGACTGTGCTAG | 0.0176 z-score
TTAGGTCTCCTTCTCTTTTAGTGCTAG | 0.666 z-score
TTAGAACCGAGACTGGATTAGTGCTAG | 0.947 z-score
GACGAGTCCAGTTTCGAGACGTGCTAG | 4.37 z-score

Series 2
Target: Histone acetyltransferase KAT6A, winged helix 1, GST fusion (KAT6A, Homo sapiens, UniProt Q92794, residues 1-85)
Method: protein binding microarray
Molecule type: double-stranded DNA, one strand shown
Medium: in vitro
Concentration: not given
Notes: 8-mer, flanks averaged, mean of 2 arrays, mostly near background
Reference: not given
Direction: higher = stronger binding
Residues (chain): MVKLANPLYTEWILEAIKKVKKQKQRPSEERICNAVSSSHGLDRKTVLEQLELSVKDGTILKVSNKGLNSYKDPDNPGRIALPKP
Sequence | E-score
GCAGTGAA | -0.107
TGTCTGAA | -0.184
GAAAACAC | 0.0388
TATGGGCA | -0.0862
CAACTAAA | -0.079
GCCGTCCA | 0.264
TAGTCGAA | -0.184
GAAGCAGA | -0.328
CCCGCCAG | 0.238
CAAAGGCA | -0.117
TGGGTCAA | -0.298
GTCCCCGA | 0.0399
ACGTATAC | -0.0285
AACGCTAT | 0.0649
CCCGAGCC | 0.277
AATCCGAG | 0.0528
GGAACTAA | 0.0431
TAACCGAA | -0.0869

Series 3
Target: CCNA2, cyclin fold, Cln2 fusion (human)
Method: yeast growth competition, sequencing
Medium: yeast
Notes: strong parent motif
Reference: not given
Direction: higher = stronger binding
Starting sequence: WEE1 docking peptide (human); HKTFRKLRLFDTP
Variant | normalised enrichment score
HLTFRKLRLFDTP [K2L] | 0.953
HKTFRKLNLFDTP [R8N] | 0.809
HKTFRKLRNFDTP [L9N] | 1.31
HKTFRKLRLFDTT [P13T] | 2.66
RKTFRKLRLFDTP [H1R] | 0.514
HKTFRKLVLFDTP [R8V] | 1.26
HKTFKKLRFFDTP [R5K L9F] | 1.2
HKTFRVLRLFDTP [K6V] | 1.33
HKTFRKLRLFDDP [T12D] | 2.55
HKTFRKLRLFDTW [P13W] | 1
HKTDRKLRLFDTP [F4D] | 0.626
HKTFRKLRLHDTP [F10H] | 0.394
HKTFRKSRLFDTP [L7S] | 0.289
CKTFRKLRLFDTP [H1C] | 1.7
HKTFRKLRLVDTP [F10V] | 0.531
HKTFRKLRHFDTP [L9H] | 0.293
PKTFRKLRLFDTP [H1P] | 1.26
HKTFRKLRGFDTP [L9G] | 1.37

Series 4
Molecule: B1 (IAA6)
Method: two-hybrid
Reference: out of 4 tests
Direction: higher = firmer interaction
B1: IAA6 (Arabidopsis thaliana, UniProt Q38824); chain MAKEGLALEITELRLGLPGDNYSEISVCGSSKKKKRVLSDMMTSSALDTENENSVVSSVEDESLPVVKSQAVGWPPVCSYRRKKNNEEASKAIGYVKVSMDGVPYMRKIDLGSSNSYINLVTVLENLFGCLGIGVAKEGKKCEYIIIYEDKDRDWMLVGDVPWQMFKESCKRLRIVKRSDATGFGLQQD
partner | notes | positive tests
ARF6 790-935 (Arabidopsis thaliana, UniProt Q9ZTX8) | – | 1
IAA20 (Arabidopsis thaliana, UniProt O24410) | weak activation fusion | 0
ARF1 538-665 (Arabidopsis thaliana, UniProt Q8L7G0) | – | 0
IAA17 (Arabidopsis thaliana, UniProt P93830) | – | 2
ARF16 570-670 (Arabidopsis thaliana, UniProt Q93YR9) | – | 0

Series 5
Target: CEBPB, bZIP domain (human)
Method: DHFR protein complementation
Medium: yeast
Notes: single substitutions, most at no-binding floor
Reference: wild-type JUN-FOS pair
Direction: higher = stronger binding
Starting sequence: JUN, bZIP domain (human); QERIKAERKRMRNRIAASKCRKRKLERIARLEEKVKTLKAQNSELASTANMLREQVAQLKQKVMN; partner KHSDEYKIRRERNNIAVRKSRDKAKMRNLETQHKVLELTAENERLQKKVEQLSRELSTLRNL
Variant | binding fitness [natural log]
M51D | -1.28
A40Y | -1.45
S47R | -1.14
A40P | -1.5
L38W | -1.44
K39C | -1.37
K34D | -1.09
E33T | -1.33
S47G | -1.29
Q41N | -1.45
V56S | -1.46
S43K | -1.11
A49Q | -1.38
M51I | -1.33
K39N | -1.44
Q55E | -1.35
A46Q | -1.2
R30A | -0.901
N42Q | -1.4
E44K | -1.42
R53D | -1.27
N42M | -1.46
N42P | -1.37
S43L | -1.29
A57S | -1.27
